Measurements of several laboratories.
Each line is one published result; not all experiments were run side by side. Numbers after ± are the reported error.
Matrix: plasma

SMILES	species	route	dose	time	setting	added	AUC(0-inf)
COc1cc(C)c(Cc2ccc(O)cc2)cc1[C@@H]1S[C@H](CO)[C@@H](O)[C@H](O)[C@H]1O	Japanese T2DM patients	–	1 mg luseogliflozin	day 1	once daily	–	62.7 ± 10.5 ng·h/mL
Cc1ccccc1-c1cc(N2CCNCC2)ncc1N(C)C(=O)C(C)(C)c1cc(C(F)(F)F)cc(C(F)(F)F)c1	cancer patients	oral	dose not given	–	netupitant-palonosetron single dose, range of means	–	4200 to 5990 ng·h/mL
O=C(O)c1cccc(S(=O)(=O)Nc2ccccc2)c1	patients with severe liver dysfunction	intravenous	400 mg/m^2 belinostat	–	single 30 min infusion, cycle 1 day -7, mean	–	16200 ng·h/mL
CCCC[C@H](NC(=O)[C@H](CC(C)C)N(C)C(=O)CNC(=O)[C@@H](NC(=O)[C@H](Cc1ccccc1)NC(=O)[C@H](CCCCN)NC(=O)[C@@H](N)CC(=O)O)C(C)C)C(N)=O	Göttingen minipig	subcutaneous	100 µg/kg	–	–	–	29.8 ng·h/mL
CC(C)(Sc1cc[n+]([O-])cc1-c1ccc(C#N)c2ccccc12)C(=O)OC1OC(C(=O)O)C(O)C(O)C1O (stereo not drawn)	–	oral	15 mg	–	mild renal impairment, fasted	–	339 ng·h/mL
CN1CCN(c2cc(-c3ccccc3CO)c(N(C)C(=O)C(C)(C)c3cc(C(F)(F)F)cc(C(F)(F)F)c3)cn2)CC1	healthy volunteers	oral	dose not given	–	netupitant-palonosetron, standard dissolution capsule	–	4050 ng·h/mL
Cn1cc(C(N)=O)c(NC2C3CC4CC2CC(OS(=O)(=O)O)(C4)C3)c2ccnc1-2 (stereo not drawn)	Japanese adults, normal hepatic function	oral	150 mg single dose	–	fasting	–	372 ng·h/mL
CC(C)[C@H](NC(=O)CNC(=O)[C@H](CCC(N)=O)NC(=O)[C@H](C)N)C(=O)O	healthy volunteers, LPS endotoxaemia	intravenous	45 mg/kg/h	2 h infusion	geometric mean	LPS 2 ng/kg	6520 ng·h/mL
CONC(=O)/C=C/c1cccc(S(=O)(=O)Nc2ccccc2)c1	patients with normal liver function	intravenous	400 mg/m^2 belinostat	–	single 30 min infusion, cycle 1 day -7, mean	–	5900 ng·h/mL
Cn1cc(C(N)=O)c(NC2C3CC4CC2CC(O)(C4)C3)c2ccnc1-2 (stereo not drawn)	Japanese adults, mild hepatic impairment	oral	150 mg single dose	–	fasting, Child-Pugh A	–	572 ng·h/mL
O=C(O)/C=C/c1cccc(S(=O)(=O)Nc2ccccc2)c1	patients with mild liver dysfunction	intravenous	400 mg/m^2 belinostat	–	single 30 min infusion, cycle 1 day -7, mean	–	6600 ng·h/mL
NC(=O)c1cnc2[nH]ccc2c1NC1C2CC3CC1CC(OS(=O)(=O)O)(C3)C2 (stereo not drawn)	Japanese adults, normal hepatic function	oral	150 mg single dose	–	fasting	–	2710 ng·h/mL
NC(=O)/C=C/c1cccc(S(=O)(=O)Nc2ccccc2)c1	patients with severe liver dysfunction	intravenous	400 mg/m^2 belinostat	–	single 30 min infusion, cycle 1 day -7, mean	–	21600 ng·h/mL
Cc1ccccc1-c1cc(N2CC[N+](C)([O-])CC2)ncc1N(C)C(=O)C(C)(C)c1cc(C(F)(F)F)cc(C(F)(F)F)c1	healthy volunteers	oral	dose not given	–	netupitant-palonosetron, standard dissolution capsule	–	1710 ng·h/mL
CC(C)(Sc1ccncc1-c1ccc(C#N)c2ccccc12)C(=O)OC1OC(C(=O)O)C(O)C(O)C1O (stereo not drawn)	–	oral	15 mg	–	severe renal impairment, fasted	–	969 ng·h/mL

Repeated from above:
SMILES	species	route	dose	time	setting	added	AUC(0-inf)
NC(=O)/C=C/c1cccc(S(=O)(=O)Nc2ccccc2)c1	patients with severe liver dysfunction	intravenous	400 mg/m^2 belinostat	–	single 30 min infusion, cycle 1 day -7, mean	–	21600 ng·h/mL
Cc1ccccc1-c1cc(N2CC[N+](C)([O-])CC2)ncc1N(C)C(=O)C(C)(C)c1cc(C(F)(F)F)cc(C(F)(F)F)c1	healthy volunteers	oral	dose not given	–	netupitant-palonosetron, standard dissolution capsule	–	1710 ng·h/mL
